Experimental data of several laboratories.
Parts stem from different laboratories: compare values within a part only. Positions count from the first letter of the parent shown.

Study 1 — target: CCNE2, cyclin fold, Cln2 fusion (human); technique: yeast growth competition, sequencing; medium: yeast; setting: weak parent motif; relative to: not given; reading: higher = stronger binding; quantity: normalised enrichment score
Starting sequence: PKN2 docking peptide (human); VSAVQKLDFSDTM
VSAVQNLDFSDTM [K6N]: 0.528
VSAVQKLDFSKTM [D11K]: -0.0585
ISAVQKLDFSDTM [V1I]: 0.0122
WSAVQKLDFSDTM [V1W]: 0.0794
VSAVQKLDFMDTM [S10M]: 0.185
VSAVQKMDFSDTM [L7M]: -0.201
VSAVQKQDFSDTM [L7Q]: -0.168
VSAVQKLDFEDTM [S10E]: 0.964
VSAVQKLDFSDTN [M13N]: 0.412
VSFVQKLDFSDTM [A3F]: 0.125
VSRVQKLDFSDTM [A3R]: 0.142
VSAVQKLDFSDKM [T12K]: -0.0483
VSAVQKLDPSDTM [F9P]: -0.474
VSAVQKLDFSCTM [D11C]: 0.554
VSAVQTLDFSDTM [K6T]: 0.208
VSAVQKLDFSDTC [M13C]: -0.139
VSAVQKLDFSDHM [T12H]: 0.125
ASAVQKLDFSDTM [V1A]: 0.111
VWAVQKLDFSDTM [S2W]: 0.0427
VSWVQKLDFSDTM [A3W]: 0.55
VSAVQKLQFSDTM [D8Q]: 0.425

Study 2 — target: UBE2Q2 UBC core domain (UniProt Q8WVN8); technique: yeast two-hybrid; medium: yeast; setting: mostly zero background; relative to: not given; reading: higher = stronger interaction; quantity: lacZ reporter activity
Sequence of UniProt Q8WVN8 (whole entry, looked up): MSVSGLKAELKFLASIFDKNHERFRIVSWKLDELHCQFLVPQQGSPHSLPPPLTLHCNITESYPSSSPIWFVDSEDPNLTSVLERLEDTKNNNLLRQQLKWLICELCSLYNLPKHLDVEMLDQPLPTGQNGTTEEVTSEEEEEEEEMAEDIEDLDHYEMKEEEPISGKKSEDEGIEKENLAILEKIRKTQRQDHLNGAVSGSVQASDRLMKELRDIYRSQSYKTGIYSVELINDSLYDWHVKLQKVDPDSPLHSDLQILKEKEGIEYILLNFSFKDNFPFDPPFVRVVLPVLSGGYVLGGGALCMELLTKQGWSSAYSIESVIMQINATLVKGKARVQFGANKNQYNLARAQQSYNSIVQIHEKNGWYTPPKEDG
B1: RFWD3 RING domain (UniProt Q6PCD5); chain ASMDEEEGDTCTICLEQWTNAGDHRLSALRCGHLFGYRCISTWLKGQVRKCPQCNKKARHSDIVV
B2: SYTL4 RING domain (UniProt Q96C24); chain RGSQHYSDRTCARCQESLGRLSPKTNTCRGCNHLVCRDCRIQESNGTWRCKVCAKEIELKKAT
B3: ZMIZ2 RING domain (UniProt Q8NF64); chain GTIPGTPGPNGEDGVEQTAIKVSLKCPITFRRIQLPARGHDCRHIQCFDLESYLQLNCERGTWRCPVCNKTALLEGLEVDQYMLGILIYIQNSDYEEITIDPTCSWK
B4: RNF19A RING domain (UniProt Q9NV58); chain ISKQIGDFIECPLCLLRHSKDRFPDIMTCHHRSCVDCLRQYLRIEISESRVNISCPECTERFNPHDIR
B5: RBCK1 RING domain (UniProt Q9BYM8); chain SLVLNTEPAECPVCYSVLAPGEAVVLRECLHTFCRECLQGTIRNSQEAEVSCPFIDNTYSCSGKLLEREIK
B6: MDM4 RING domain (UniProt O15151); chain MEDCQNLLKPCSLCEKRPRDGNIIHGRTGHLVTCFHCARRLKKAGASCPICKKEIQLVIKVF
B7: SH3RF1 RING domain (UniProt Q7Z6J0); chain DESALLDLLECPVCLERLDASAKVLPCQHTFCKRCLLGIVGSRNELRCPECRTLVGSGVEEL
B1 (RFWD3 RING domain): 0
B2 (SYTL4 RING domain): 0
AMYLQENGIDCPKCKFSYALARGGCMHFHCTQCRHQFCSGCYNAFYAKNKC (RNF31 RING domain (UniProt Q96EP0)): 0
B3 (ZMIZ2 RING domain): 0
YQNEVDDDLVCHICLQPLLQPLDTPCGHTFCYKCLRNFLQEKDFCPLDRKRLHFKLCKK (LNX2 RING domain (UniProt Q8N448)): 0
B4 (RNF19A RING domain): 0
B5 (RBCK1 RING domain): 0
GSDDEEIPFKCFICRQSFQNPVVTKCRHYFCESCALQHFRTTPRCYVCDQQTNGVFNPA (RNF113A RING domain (UniProt O15541)): 0
B6 (MDM4 RING domain): 0
PEDRESLKSACVVCLSSFKSCVFLECGHVCSCTECYRALPEPKKCPICRQAITRVIPLY (MUL1 RING domain (UniProt Q969V5)): 0
B7 (SH3RF1 RING domain): 0

Study 3 — technique: EMSA with sequencing; form: double-stranded DNA, one strand shown; medium: in vitro; tested at: 10 and 20 nM; relative to: negative control set to 0; reading: higher = stronger binding; quantity: normalised bound fraction
Target: Hepatocyte nuclear factor 3-alpha (Foxa1, Mus musculus, UniProt P35582, residues 1-468, full length assumed)
Setting: whole designed probe, mean of two concentrations, ends assumed
Residues (chain): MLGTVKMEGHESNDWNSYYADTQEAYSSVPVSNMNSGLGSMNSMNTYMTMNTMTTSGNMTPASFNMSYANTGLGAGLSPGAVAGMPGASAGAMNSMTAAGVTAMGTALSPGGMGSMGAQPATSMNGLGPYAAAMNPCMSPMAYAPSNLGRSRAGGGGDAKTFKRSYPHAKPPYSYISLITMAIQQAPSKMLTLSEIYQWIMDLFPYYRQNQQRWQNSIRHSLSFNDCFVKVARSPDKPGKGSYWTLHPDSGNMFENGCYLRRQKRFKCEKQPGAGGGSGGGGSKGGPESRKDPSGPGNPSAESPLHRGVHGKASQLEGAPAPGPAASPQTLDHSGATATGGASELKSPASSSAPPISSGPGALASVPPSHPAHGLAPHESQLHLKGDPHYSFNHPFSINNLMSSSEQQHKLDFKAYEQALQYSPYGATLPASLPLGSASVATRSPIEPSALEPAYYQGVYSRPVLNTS
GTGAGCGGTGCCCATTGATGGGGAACAAGCAGCCAGTGTCTCTGACACCATACAAATAAAATGCAGCACCATTTGGTGATCCAGCCTAAGATTATTCTTCTCCCTTTGGCAACAGACACAAATTACTTACTATCTTTCCCAGAGCAATAGAGGGAAGCCAGGAAAGTGCTGAGCTTGTATTCTACAACCTGAGAAGGAAGTAAGGGAAAGGAAGAGCTCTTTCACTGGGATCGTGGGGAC: 0.0278 ratio
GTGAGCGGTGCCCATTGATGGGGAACAATACATTTCCTATCATCAATATATAGATTAGACAGATAATTTTCAATATTTGCAGAATGTTTCATTCAATTGTGATCCATAGTTTATATACCCTGTTTACATTGAGTTTATTTTAAGAGAGGGAATAATTGAATTTTTTTGAGAAATATTAAGAATGGGAGACAAAGGGAAAATTGGAAATTCAAGGGCTCATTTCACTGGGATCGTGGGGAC: 0.252 ratio
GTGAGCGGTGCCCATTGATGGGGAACTCCGGTTGGGAGCTTCTTCACTAAATGAGAGAATGTTTGAAATATCAAATAGAGTACAATAGTACATAGCATATCCTAAATGATAGGGTACAAAGTAAACAAGTTAAAAGTAAATGTGTAGCTCTAGGATCAAGCCAAACAAAGCTATTTAAAACCTAAACTTAAAATGAAGGGGATGAATTAGTCTAGATCTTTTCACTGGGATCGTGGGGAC: 0.479 ratio
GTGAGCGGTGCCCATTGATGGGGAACACATTCTTATAACCTATATGACATTATATTAAATTCCATTTAAAACCGTAGCATAAGAAGCATTGTATCTGGCACAAAAATACAAAGGGATTTTGTTTACTGAGAGACAAGATAAACTATATACTAGAACTAAAAGCTCTATAAAATATTTAATGAAAAATTCTGTAGTAATTTTATGTGAGGTTTTTTAAACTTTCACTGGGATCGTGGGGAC: 0.193 ratio
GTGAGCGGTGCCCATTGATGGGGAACCTTACATGCAATTGCTTAATATAATATAGCTTTCCTCTCAATTTTACAAAATTAAGATCTTACTTGGCTAATTCTAAGACACCTAGGAACAGTGTAAATATGGCTCAGAATTGCCAGTGCCCAGACTGGAATTTCACTGAATGAATATAATCATTTTCTCCTTAAAGTAACCTAAAATAAACCCCTCCAAAAATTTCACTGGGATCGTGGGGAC: 0.105 ratio

Study 4 — technique: RNA Bind-n-Seq; form: RNA; medium: in vitro; tested at: not given; setting: RNA with constant flanks, ends assumed; relative to: input RNA pool; reading: higher = stronger binding; quantity: bound/input enrichment
Target: RING finger protein unkempt homolog, zinc fingers 1-6, GST-SBP tag (UNK, Homo sapiens, UniProt Q9C0B0, residues 30-357)
Residues (chain): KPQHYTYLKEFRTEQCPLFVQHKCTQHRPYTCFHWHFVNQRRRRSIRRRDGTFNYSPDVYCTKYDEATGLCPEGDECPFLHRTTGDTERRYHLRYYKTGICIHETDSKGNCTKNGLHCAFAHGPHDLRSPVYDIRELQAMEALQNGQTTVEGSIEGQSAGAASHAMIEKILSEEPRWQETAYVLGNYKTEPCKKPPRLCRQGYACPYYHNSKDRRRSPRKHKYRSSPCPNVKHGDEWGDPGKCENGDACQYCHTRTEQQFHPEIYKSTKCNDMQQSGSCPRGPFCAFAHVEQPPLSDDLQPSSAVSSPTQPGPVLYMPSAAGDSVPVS
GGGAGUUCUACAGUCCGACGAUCUUUGCAGUUUAUGAUGGUCAUGCUGGAUCCCGAGUGGCAAAUUACUGCUCAACACAUUUAUCCGAACACAUCACUACUAACGAAGACUUUAGGGCAGCUGGAAAAUCAGGAUCUGCUCUUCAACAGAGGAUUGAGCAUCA: 0.247 ratio
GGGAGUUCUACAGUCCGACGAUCCCAUCCCUCAGUGACAGCAUGCCGUCUGUAGCAGAUUCCCACUCCAGUCAUUUUUCUGAAUUCCGCUGCUCAGACUUAGAAAGCAUGAGAACGUCCUGUAGUCACGGCUCCAGUGAUUGCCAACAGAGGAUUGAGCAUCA: 0.274 ratio
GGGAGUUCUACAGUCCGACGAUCGAUGAACUUCAUGAUCAUGGAGUUUCAAGCCUGAGUGUGAAGAUUAGAGUAAUGCCUUCCCGCUUUUUCCUGCUGUUGCGGUUUUUCUUGAGAAUUGAUGGGGUGCUUAUCAGAAUGAAUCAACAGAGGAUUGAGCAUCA: 0.698 ratio
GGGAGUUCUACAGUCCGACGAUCGUCAGGGUCGCCAGCGCCUCAGCUCUGUGGAGGAGCAGCAGUAGUCGGAGGGUGCAGGAUAUCCGAAAUGGCUACUCCCCAGUCAAUUUUCAUCUUUGCAAUCUGCAUUUUAAUGAUAACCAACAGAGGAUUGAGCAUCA: 0.234 ratio
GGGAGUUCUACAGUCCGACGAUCCGUCAAACUUUUGGUUGUGUGGGGUUUUUUGUUGUUUUUUGGGUUUUGUUUUUUAAUACUUCCGGGUCCUGAUUUGUGGGAACAGACCUUCUUGUAAAUAACCACUAUUUGAGUUGUGGCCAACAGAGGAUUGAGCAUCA: 0.91 ratio
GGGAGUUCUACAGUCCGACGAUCUUAUUUUUAAGAAGAUGCCAAUAUAAUUUUUGUAAGAAGGCAGUAACCUUUCAUCAUGAUCACCGGCAGUUGAAAAAUUUUUACACCUUUUUUUUCACAUUUUACAUAAAUAAUAAUGCUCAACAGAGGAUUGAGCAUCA: 3.57 ratio
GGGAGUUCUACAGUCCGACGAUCAGAACAAACAAAGGGCUGCAACUACGGCAUGGCAAUGACCAACGCGUGUUCCGUUCCGAGUUUGUCUCAAACCAAGAAUUCACCGAAAGUGAGUUUAUGAAGUGGAAAGAAGCGAUGUUCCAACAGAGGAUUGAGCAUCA: 0.0967 ratio
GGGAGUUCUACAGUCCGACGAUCAUUGCAGCUAAAUACCAGUUGGAUCCUACUGCUUCUAUCUCUGCAAAGGUCAACAACUCCCGUUUAAUUGGAGUGGGCUAUACUCAGACUCUGAGGCCUGGUGUGAAGCUUACACUGUCUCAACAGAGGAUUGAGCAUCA: 0.072 ratio

Some of these lines once more (study 4):
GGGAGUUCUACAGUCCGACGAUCAUUGCAGCUAAAUACCAGUUGGAUCCUACUGCUUCUAUCUCUGCAAAGGUCAACAACUCCCGUUUAAUUGGAGUGGGCUAUACUCAGACUCUGAGGCCUGGUGUGAAGCUUACACUGUCUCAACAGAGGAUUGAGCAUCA: 0.072 ratio
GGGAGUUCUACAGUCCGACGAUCUUUGCAGUUUAUGAUGGUCAUGCUGGAUCCCGAGUGGCAAAUUACUGCUCAACACAUUUAUCCGAACACAUCACUACUAACGAAGACUUUAGGGCAGCUGGAAAAUCAGGAUCUGCUCUUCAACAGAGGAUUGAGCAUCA: 0.247 ratio
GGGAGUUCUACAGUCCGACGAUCUUAUUUUUAAGAAGAUGCCAAUAUAAUUUUUGUAAGAAGGCAGUAACCUUUCAUCAUGAUCACCGGCAGUUGAAAAAUUUUUACACCUUUUUUUUCACAUUUUACAUAAAUAAUAAUGCUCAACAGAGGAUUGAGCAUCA: 3.57 ratio
